Measured values from different studies.
Compare with care: the assays were run in different laboratories. ± gives the spread as reported.

For `CC1(C)CCC(CN2CCN(c3ccc(C(=O)NS(=O)(=O)c4ccc(NCC5CCOCC5)c([N+](=O)[O-])c4)c(Oc4cnc5[nH]ccc5c4)c3)CC2)=C(c2ccc(Cl)cc2)C1`, the necrotic cells was 0.1% (THP-1; annexin V/PI flow cytometry, item: annexin V-/PI+; 0.8 µM, 24 h).
`CC/C(=N\NC(=O)NCc1cccc(O)c1)c1ccc(O)c(C)c1O`: “TAZ protein level” 0.82 ± 0.27 (SK-OV-3; Western blot; 3D culture in gellan gum; 20 µM, 1 h, unit not given; baseline: β-actin).
With `C[C@]12CC[C@@H]3c4ccc(O)cc4CC[C@H]3[C@@H]1CC[C@@H]2O` the Emax was 97% (MCF7 3xERE-luc, steroid-deprived; ERE luciferase reporter, agonist; baseline: vehicle).
`CCn1cc(-c2cc(Cn3ccnc3)cc3c2CCN([C@H](c2cc(OC)ccn2)C2CC2)C3=O)c(C(F)(F)F)n1` gave an EC50 of 3.25 µM (SNU-398; cell growth, inhibitor; 120 h).
`Cn1cc(-c2ccc(-c3cncc(Cl)c3N3CCC4(CCNC4=O)CC3)cc2)cn1`: “log2 fold change” 2.2 (COLO 205; gene expression, microarray, item: FSCN1 mRNA; concentration not given, 6 h; baseline: untreated cells).
`COc1cnc2cccc(N3CCc4c(cc(Cn5ccnc5C)cc4-c4cn(C)nc4C(F)(F)F)C3=O)c2c1` gave an EC50 of 1.04 µM (JHH6; cell growth; 120 h).
`CC(C)NCC(O)c1ccc(O)c(O)c1` (stereo not shown) gave a sarcomere length of 1.65 µm (mouse ventricular cardiomyocytes; dose not given, 0.115 s).
`CN(C)c1ccccc1CN1CCCN(Cc2ccccc2N(C)C)C1c1ccncc1` has an inhibition of ~50% (Sufu-/- mouse embryonic fibroblasts; qRT-PCR, item: Gli1 mRNA; 10 µM; baseline: DMSO).
The GI50 of `O=C(/C=C/C=C/C=C/C1CCCCC1)NC1=C[C@@](O)(/C=C/C=C/C=C/C(=O)NC2=C(O)CCC2=O)[C@@H]2O[C@@H]2C1=O` is reported as 13.4 µM (SK-CO-1; cell growth, CellTiter-Glo; 78 h).
For `CN(C)C(=S)SSC(=S)N(C)C`, the AC50 was 0.023 µM (differentiated LUHMES MT1G-HiBiT neurons; item: MT1G; 24 h).
`CCn1cc(-c2cc(Cn3ccoc3=N)cc3c2CCN([C@@H](C)c2cc(OC)ccn2)C3=O)c(C(F)(F)F)n1` has an EC50 of > 30 µM (C3A; cell growth, inhibitor; 120 h).
For `Cc1cc(Nc2ncc(Cl)c(Nc3ccccc3S(=O)(=O)C(C)C)n2)c(OC(C)C)cc1C1CCNCC1`, “log2 fold change” read -1.66 (CLB-GE; phosphoproteomics LC-MS/MS, item: MELK phosphorylation; 200 nM, 60 min; baseline: untreated).
With `Cn1c(Nc2nc3ccc(C(F)(F)F)cc3s2)nc2cc(C(=O)NCCOCCO)ccc21` the fold change was 2.57 (SH-SY5Y; RNA-seq, item: TFPI2 mRNA; 5 µM, 5 h; baseline: untreated cells).

A few entries again:
`CCn1cc(-c2cc(Cn3ccoc3=N)cc3c2CCN([C@@H](C)c2cc(OC)ccn2)C3=O)c(C(F)(F)F)n1` has an EC50 of > 30 µM (C3A; cell growth, inhibitor; 120 h).
For `Cc1cc(Nc2ncc(Cl)c(Nc3ccccc3S(=O)(=O)C(C)C)n2)c(OC(C)C)cc1C1CCNCC1`, “log2 fold change” read -1.66 (CLB-GE; phosphoproteomics LC-MS/MS, item: MELK phosphorylation; 200 nM, 60 min; baseline: untreated).
